# Measurements gathered from unrelated publications.
# Protocols differ between the studies behind these lines. ± gives the spread as reported.
# Cell line: MDA-MB-231
SMILES,effect on,technique,time,setting,IC50 [µM]
COC(=O)[C@H](C(C)C)N(C)C(=O)[C@H](C(C)C)N(C)C(=O)[C@@H]1CCCN1C(=O)[C@H](C)N(C)C(=O)OC(C)(C)C,cell growth or viability,SRB,,,56
N.N.O=C([O][Pt]([Cl])([Cl])[O]C(=O)c1ccc(P(c2ccccc2)c2ccccc2)cc1)c1ccc(P(c2ccccc2)c2ccccc2)cc1.[Cl][Au].[Cl][Au],cell growth or viability,resazurin,72 h,,3.2
C1=CCCC=CCC1.C1=CCCC=CCC1.O=C(N=P12CN3CN(CN(C3)C1)C2)c1cccc[c]1[Pt+].O=C(N=P12CN3CN(CN(C3)C1)C2)c1cccc[c]1[Pt+].[Cl][Hg-]([Cl])[Cl].[Cl][Hg-]([Cl])[Cl].[Cl][Hg][Cl].[Cl][Hg][Cl],cell growth or viability,MTT,24 h,,14.6
Cc1nn(-c2ccccc2)c(O)c1C(c1ccc(N(C)C)cc1)c1c(C)nn(-c2ccccc2)c1O,cell growth or viability,MTT,48 h,,26.4
Cc1cc(C)c(-n2c[n+](-c3c(C)cc(C)cc3C)c3c2-c2cccc4cccc-3c24)c(C)c1.[Cl][Pd-]([Cl])[CH2]C=Cc1ccccc1,cell growth or viability,MTT,72 h,,6
CC(C)C[C@@H](NC(=O)[C@H](N)Cc1ccccc1)C(=O)NCC(=O)N[C@@H](C(=O)N[C@H](CC(C)C)C(=O)N[C@H](C)C(=O)N[C@H](CC(C)C)C(=O)N[C@H](CC(C)C)C(=O)NCC(=O)N[C@H](Cc1ccc(O)cc1)C(=O)N[C@H](CC(C)C)C(=O)N[C@H](C)C(=O)N[C@@H](C(=O)N[C@H](CCCNC(=N)N)C(=O)N1CCC[C@@H]1C(=O)N[C@H](Cc1ccccc1)C(=O)N[C@H](CC(C)C)C(=O)N1CCC[C@@H]1C(=O)N[C@H](CCCCN)C(=O)N[C@H](CCCCN)C(=O)N[C@H](CCCCN)C(=O)N[C@H](CCC(N)=O)C(=O)N[C@H](CCC(N)=O)C(=O)N[C@H](CCCCN)C(N)=O)C(C)C)C(C)C,cell growth or viability,resazurin,,,12.8
C=C(CO)[C@H]1Cc2c(ccc3c2O[C@@H]2COc4cc(OC)c(OC)cc4[C@]2(O)C3=O)O1,cell growth or viability,MTT,72 h,,27.2
N[C@H](CC[As](O)O)C(=O)O,cell viability,,,,5
CCCCCCN(CCCCCC)C1=[S+][Au-]2([S]1)[c]1ccccc1-c1cccc[c]12,cell growth or viability,MTT,72 h,,81.3
Cc1nn(-c2ccccc2)c(O)c1C(c1ccccc1O)c1c(C)nn(-c2ccccc2)c1O,cell growth or viability,MTT,48 h,,24.2
N=C(N)NCCC[C@H](NC(=O)[C@H](CCCNC(=N)N)NC(=O)[C@@H]1CCCN1C(=O)[C@H](CCCNC(=N)N)NC(=O)[C@H](CCCNC(=N)N)NC(=O)[C@H](CCCNC(=N)N)NC(=O)[C@H](Cc1c[nH]c2ccccc12)NC(=O)[C@H](CCCNC(=N)N)NC(=O)[C@H](CCCNC(=N)N)NC(=O)[C@H](CCCNC(=N)N)NC(=O)[C@H](CCCNC(=N)N)NC(=O)[C@H](CCCNC(=N)N)NC(=O)[C@H](Cc1c[nH]c2ccccc12)NC(=O)[C@H](CCCNC(=N)N)NC(=O)[C@H](CCCNC(=N)N)NC(=O)[C@H](Cc1ccc(O)cc1)NC(=O)[C@H](CCCNC(=N)N)NC(=O)[C@H](CCCNC(=N)N)NC(=O)[C@H](CCCNC(=N)N)NC(=O)[C@@H](N)Cc1c[nH]c2ccccc12)C(N)=O,cell viability,CellTiter-Blue,24 h,serum-free medium,4.5 ± 0.1
C[C@@H](N)[C@H](O)CCCCCCCC(=O)CCCCCCCCCCCCCC[C@@H](O[C@@H]1O[C@H](CO)[C@@H](O)[C@H](O)[C@H]1O)[C@@H](N)CO,cell growth or viability,resazurin,96 h,,1.96
COC(=O)C1CN1S(=O)(=O)c1ccc(N)cc1 (stereo not shown),cell growth or viability,MTT,48 h,,64

# For quick reference, copied from above:
SMILES,effect on,technique,time,setting,IC50 [µM]
C[C@@H](N)[C@H](O)CCCCCCCC(=O)CCCCCCCCCCCCCC[C@@H](O[C@@H]1O[C@H](CO)[C@@H](O)[C@H](O)[C@H]1O)[C@@H](N)CO,cell growth or viability,resazurin,96 h,,1.96
